Experimental data collected from several papers.
Each numbered part is a random draw from the data of one study; scales do not carry over between parts. Substitutions count along the parent as printed.

Study 1 — technique: DHFR PCA, deep sequencing; medium: yeast; together with: (+)-ABA 200 µM; relative to: wild-type fitted maximum; reading: higher = stronger binding; quantity: relative binding score
Target: ABI1, truncated, D143A, DHFR fusion (Arabidopsis thaliana)
Setting: methotrexate growth selection, single substitutions
Starting sequence: PYL1, truncated, DHFR fusion (Arabidopsis thaliana); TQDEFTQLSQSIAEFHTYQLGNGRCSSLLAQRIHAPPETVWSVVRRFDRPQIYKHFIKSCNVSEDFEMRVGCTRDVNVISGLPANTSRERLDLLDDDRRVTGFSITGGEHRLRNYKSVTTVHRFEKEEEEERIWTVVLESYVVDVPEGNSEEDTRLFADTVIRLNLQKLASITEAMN; partner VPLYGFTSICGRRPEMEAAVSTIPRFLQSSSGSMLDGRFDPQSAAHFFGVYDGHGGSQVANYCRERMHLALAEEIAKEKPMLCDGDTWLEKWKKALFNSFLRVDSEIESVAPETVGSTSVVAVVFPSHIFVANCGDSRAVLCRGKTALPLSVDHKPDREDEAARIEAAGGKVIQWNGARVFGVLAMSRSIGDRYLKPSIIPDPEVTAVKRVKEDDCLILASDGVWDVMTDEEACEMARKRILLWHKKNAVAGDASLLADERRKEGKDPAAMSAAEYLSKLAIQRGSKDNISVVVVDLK
L82E: 5.48%
R24Q: 109%
V43I: 103%
T154S: 50.9%
L166M: 86.4%
I133K: 109%
N177A: 120%
V121H: 9.23%
I162D: -7.02%
T106R: 83.5%
R111W: 28.6%
M176E: 99.8%
R32T: 101%
T160L: 94.5%
K168S: 98.9%

Study 2 — technique: RNA Bind-n-Seq; molecule type: RNA; medium: in vitro; concentration: 365 nM; relative to: no-protein control; reading: higher = stronger binding; quantity: RBNS enrichment (R)
Target: RNA binding protein fox-1 homolog 2, RRM domain, GST-SBP tag (RBFOX2, Homo sapiens, UniProt O43251-10, residues 100-194)
Setting: natural RNA segment, single round, ends assumed
All sequences stand within: GGGAGUUCUACAGUCCGACGAUC … UGGAAUUCUCGGGUGCCAA
Residues (chain): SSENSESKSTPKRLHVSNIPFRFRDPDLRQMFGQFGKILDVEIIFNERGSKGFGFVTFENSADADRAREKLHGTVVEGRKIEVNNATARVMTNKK
CUUGAGUAAAUCCCGUUACCUCUCUGAGCCUCGGUUACCCUGUCUGUAAAAAGGGAGGUGAGAAUACCUACCUCACGGAACUGUUGGGAGGCUCAGAUGAGAUGCUAUAU: 0.311
UUUGCAGGCUUUUCUGAAUACCAAAUCUGCUUUUUGUAAAGCGUAAAAACAUCACAAAGUAGGUCAUUCCAUCACCACCCUUGUCUCUCUACACAUUUUGCCUUUGGGGA: 0.501
GGUCCUCUCUUCUCUUCCCCGGGGAGAGAAUAAGGGCUCACUAAGCAGAGGAACCCACUUAGAGGAAGGAAAAGCACAAACUCCCUAAGGAAUGUAUCACAGACCGUCAC: 0.552
UCCUCCCAGGUUGGUGUCCCACUGGACAGGUCACAAUGCAGGCUGCCUGCUUUGCCUCCUCCUGUGUUUCCCUGCUCCAGGGCCACUUCCAGGGAUUACAUGGAGGAUCA: 1.44
UCUUGAUUUUACAGGUGAGGGUGGUUGCCAAAGGUGAUAAGAAAAGCAGCCAACAGGCUCCCUCUCACUUAAGAGAGUUCUAAUUAAUAACACUAAAUUCUUCCUGAGAA: 0.47
UUUAUGCCUUUGCGGGUUUCUUGAUGUGUUCGCAGUGUCACCCCAGAGUCAGAACUGUACACAUCCCAAAAUUUGGUGGCCGUGGAACACAUUCCCGGUGAUAGAAUUGC: 0.252
AGAAAAUGAGCAGAUUUCUUUCCAUUGUGGGCUCUGGAAACCACAUGGCUUCACCUGUCCCCGAAACUACCAGCCCUACACCAUUCCUUCUGCCCUGCUUUUGCUAGGUC: 0.656
UAAUCGCCUUUGCUUGCCUGUCGUCAGUGCAGCGAGCUGAGGCACUUGUCCGUUCGUCUUACCAUCUAACCAAACAAAAGACAAAGAAAUUGUUGUCCUCCAACUCAGCU: 0.172
GAGGCCACACUGGGCGCGGUGCCAGAGGCCCCUGGUCAGGCCAUGCCCCUGCAGUGUCCUUCGUUCACUAGACAUUGCGCCUGGCUUGCUGUGGGUGGGGAUGAGUUGCU: 1.61
CUAGCUGCCAUGUGGGGUCCACCUCUUGCCUCAGCAACUUUCCAGGACCUUUGAACUUGCCAGAUACCUUAAGUGUCUUCCCAGAAUCUGCCCACCUGUCAUCAGCCCCC: 0.463
AGAUAGAGCUGGGUGGCCUGUUUCUGCAGCCCUUGGGCAGUUCUCACUCCUAGGAGAGCCAACCUCGGCUUGUGGGCUGGUGCCCCACAGCUACCUGAGACGGGCAUCGC: 0.302
CGAAAUGAAAACUCAGGCAGUUUAGUCCAUAGUGGUACUAUUUUGAUGAUAUUUUCCAUUAAUAAAAUGUAAUUUCAGAUUAUUCGUUUACAAGCUUUAUAAUUUUAUGA: 0.522

Study 3 — technique: RNAcompete; molecule type: RNA; medium: in vitro; concentration: 20 nM; setting: 7-mer, probes averaged, single round; relative to: mean of 7-mers; reading: higher = stronger binding; quantity: 7-mer Z-score
Target: PABPC1L2, full length, GST fusion (mouse, UniProt A0ABA7IW68)
Residues (chain): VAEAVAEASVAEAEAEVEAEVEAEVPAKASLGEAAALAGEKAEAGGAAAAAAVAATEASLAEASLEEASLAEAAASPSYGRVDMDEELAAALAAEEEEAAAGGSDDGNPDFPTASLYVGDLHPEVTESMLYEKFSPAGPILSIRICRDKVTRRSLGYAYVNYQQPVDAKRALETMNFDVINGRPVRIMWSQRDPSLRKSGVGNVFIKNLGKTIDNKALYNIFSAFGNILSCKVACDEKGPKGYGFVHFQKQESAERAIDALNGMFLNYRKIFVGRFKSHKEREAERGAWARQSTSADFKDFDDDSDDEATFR
UCUGUAC: -0.298
GUAGUCA: -0.133
CGAAAUA: 0.408
GCCAAAU: 0.126
ACGCUUG: -0.179
UUUUAAC: -0.208
GCAGAAU: 0.0478
GCGUUUC: -0.474
GCUCAUU: -0.157
UGUCACG: -0.197
UAUACCG: -0.24
CCCUUAA: -0.257
UACUGUU: -0.271
ACUGCGG: 0.18
GGGAAUA: 0.327
ACGUAAU: -0.11

Study 4 — technique: protein-binding microarray; molecule type: double-stranded DNA, one strand shown; medium: in vitro; concentration: not given; reading: higher = stronger binding; quantity: E-score
Target: Protein max, full length (MAX, Homo sapiens, UniProt P61244-2, residues 1-151)
Setting: k-mer, scored over probes, only values ≥0.25
ACACACGC: 0.407
CCACATGA: 0.453
GCACACGA: 0.308
CGTGGACA: 0.378
AGGCGCAC: 0.28
CGTGATAG: 0.328
AGCCACAT: 0.369
ACGGCACG: 0.326
CATGACAC: 0.357
ACCATGCC: 0.375
GCGTGAAA: 0.284
CGTGCAAA: 0.317
ATATGCAC: 0.259
CGTGTACC: 0.363
CAGCACGG: 0.302
CGTGACTA: 0.405
CCACCTGA: 0.372
CCATGCTA: 0.36
ACATGCCC: 0.371
AGCATGAC: 0.411
ACGCGGAA: 0.286
CATATGTC: 0.301
CCACGGGA: 0.307
AATGTGGA: 0.28
GTGGTCCA: 0.276

Study 5 — technique: universal PBM; molecule type: double-stranded DNA, one strand shown; medium: in vitro; concentration: not given; reading: higher = stronger binding; quantity: E-score
Target: Sal-like protein 4, full length isoform B (SALL4, Homo sapiens, UniProt Q9UJQ4-2, residues 1-616)
Setting: 8-mer, flanks averaged, mean of replicates
Target sequence (chain): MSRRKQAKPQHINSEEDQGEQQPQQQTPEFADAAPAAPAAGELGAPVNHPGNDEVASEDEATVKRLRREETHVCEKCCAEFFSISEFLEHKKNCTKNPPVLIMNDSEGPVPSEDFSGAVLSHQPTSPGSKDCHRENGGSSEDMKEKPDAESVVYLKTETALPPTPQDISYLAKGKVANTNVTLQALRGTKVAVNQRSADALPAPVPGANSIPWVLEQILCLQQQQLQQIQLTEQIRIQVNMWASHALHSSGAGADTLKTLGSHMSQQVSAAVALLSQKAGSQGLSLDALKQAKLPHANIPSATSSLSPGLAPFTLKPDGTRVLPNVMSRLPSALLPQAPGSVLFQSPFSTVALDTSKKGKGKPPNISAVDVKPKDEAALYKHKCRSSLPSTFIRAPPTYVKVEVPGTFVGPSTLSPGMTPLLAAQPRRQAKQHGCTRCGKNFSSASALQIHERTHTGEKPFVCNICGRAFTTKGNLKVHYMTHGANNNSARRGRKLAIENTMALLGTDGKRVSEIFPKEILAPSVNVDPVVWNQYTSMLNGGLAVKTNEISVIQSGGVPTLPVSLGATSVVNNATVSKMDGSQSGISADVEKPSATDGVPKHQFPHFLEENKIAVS
TAGCGACA: 0.15
CTTTAAGC: 0.0075
GATAAGAA: 0.212
CTGATCGA: -0.235
CTTTGTTA: 0.302
CAACGTAG: 0.0678
AACTTGAA: 0.133
TACCTATA: 0.237
CCAGGCCC: -0.324
AACGGTCA: -0.0825
ATCTTACG: 0.117
ACAATGCA: 0.229
CGCAGGAG: -0.191
CAATGCGC: -0.0475
AGAGCCAA: -0.017
AGTGACTC: -0.15
CGGTTATC: -0.0705
CAAGTGAC: -0.098
ATTACACA: 0.317
AGCTATCC: -0.177
CGGTCCTA: -0.283
AAACAGGT: 0.0814
ATAACGGA: 0.231
ATGCTGCG: -0.131

Study 6 — technique: protein binding microarray; molecule type: double-stranded DNA, one strand shown; medium: in vitro; concentration: not given; relative to: not given; reading: higher = stronger binding; quantity: E-score
Target: Histone acetyltransferase KAT6A, both winged helices, GST fusion (KAT6A, Homo sapiens, UniProt Q92794, residues 1-181)
Setting: 8-mer, flanks averaged, mean of 2 arrays, mostly near background
Construct (chain): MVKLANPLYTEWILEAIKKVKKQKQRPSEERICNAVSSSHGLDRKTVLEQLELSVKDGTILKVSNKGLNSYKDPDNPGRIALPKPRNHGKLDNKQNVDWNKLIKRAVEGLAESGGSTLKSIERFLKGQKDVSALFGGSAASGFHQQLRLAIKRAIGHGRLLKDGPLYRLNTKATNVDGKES
CTAGATGA: -0.138
GCCTGGTA: -0.172
CTAACGTC: 0.0461
CTTACGAC: -0.0268
AGACGCCG: 0.216
CCCACGCA: 0.0198
CCATGAGC: -0.0892
GGAAGAAA: -0.0318
CGGCGGTA: 0.359
ACTGCTAG: -0.0167
CCCACCGC: 0.23
GCGGGTCC: 0.245
CTCGGTGA: -0.0241
CAACTGGG: -0.169
CAACGCGA: 0.137
GGGTGGAA: -0.173
ATAAGTAA: -0.0254
ATAGAGGC: -0.0387
AATTCAGG: -0.111
AAATGGGG: -0.326
ACCAACAA: -0.132
ACGCAACT: -0.0474
GGCGTCAA: 0.0555

Some of these lines once more (study 6):
AGACGCCG: 0.216
ACTGCTAG: -0.0167
GCCTGGTA: -0.172
CGGCGGTA: 0.359
GCGGGTCC: 0.245
ACCAACAA: -0.132
CCCACGCA: 0.0198
AAATGGGG: -0.326
CAACTGGG: -0.169
AATTCAGG: -0.111
